Results from different studies.
Parts stem from different laboratories: compare values within a part only. Substitutions count along the parent as printed.

Block 1 — target: CCNE2, cyclin fold, Cln2 fusion (human); technique: yeast growth competition, sequencing; matrix: yeast; setting: strong parent motif; relative to: not given; direction: higher = stronger binding
Parent: E2F1 docking peptide (human); PPVKRRLDLETDH; partner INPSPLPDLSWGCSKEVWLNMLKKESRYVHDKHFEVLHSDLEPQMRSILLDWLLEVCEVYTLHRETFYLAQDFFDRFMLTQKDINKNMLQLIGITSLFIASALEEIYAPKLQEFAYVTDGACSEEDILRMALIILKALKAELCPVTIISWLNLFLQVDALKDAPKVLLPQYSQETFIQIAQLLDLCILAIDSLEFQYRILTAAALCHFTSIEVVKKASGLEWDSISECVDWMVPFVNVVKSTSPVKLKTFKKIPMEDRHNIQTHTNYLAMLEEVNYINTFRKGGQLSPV
`PSVKRRLDLETDH [P2S]` — result for “normalised enrichment score”: 1.48.
`PPVKRRLDLATDH [E10A]`: “normalised enrichment score” 2.18.
Under “normalised enrichment score”, `PPSKRRLDLETDH [V3S]` is recorded as 0.565.
`CPVKRRLDLETDH [P1C]` — result for “normalised enrichment score”: 1.42.
`PPVKRRLDLRTDH [E10R]`: “normalised enrichment score” 1.37.
`PPVKRRLDLEFDH [T11F]` — result for “normalised enrichment score”: 2.44.
`PPVKRRLDLITDH [E10I]`: “normalised enrichment score” 1.19.
Under “normalised enrichment score”, `PYVKRRLDLETDH [P2Y]` is recorded as 0.24.
`PPVKRRLDLCTDH [E10C]` — result for “normalised enrichment score”: 1.82.
`PPVKRILDLETDH [R6I]`: “normalised enrichment score” 0.833.
`PPVKRRLDLENDH [T11N]`: “normalised enrichment score” 0.893.
For `PPVKRRLDLETDK [H13K]`, “normalised enrichment score” read 2.01.
`PPVKRRNDLETDH [L7N]`: “normalised enrichment score” -0.166.
`PQVKRRLDLETDH [P2Q]` — result for “normalised enrichment score”: 0.746.

Block 2 — technique: universal PBM; molecule type: double-stranded DNA, one strand shown; matrix: in vitro; concentration: not given; direction: higher = stronger binding
Target: Sal-like protein 4, full length isoform B (SALL4, Homo sapiens, UniProt Q9UJQ4-2, residues 1-616)
Setting: 8-mer, flanks averaged, mean of replicates
Residues (chain): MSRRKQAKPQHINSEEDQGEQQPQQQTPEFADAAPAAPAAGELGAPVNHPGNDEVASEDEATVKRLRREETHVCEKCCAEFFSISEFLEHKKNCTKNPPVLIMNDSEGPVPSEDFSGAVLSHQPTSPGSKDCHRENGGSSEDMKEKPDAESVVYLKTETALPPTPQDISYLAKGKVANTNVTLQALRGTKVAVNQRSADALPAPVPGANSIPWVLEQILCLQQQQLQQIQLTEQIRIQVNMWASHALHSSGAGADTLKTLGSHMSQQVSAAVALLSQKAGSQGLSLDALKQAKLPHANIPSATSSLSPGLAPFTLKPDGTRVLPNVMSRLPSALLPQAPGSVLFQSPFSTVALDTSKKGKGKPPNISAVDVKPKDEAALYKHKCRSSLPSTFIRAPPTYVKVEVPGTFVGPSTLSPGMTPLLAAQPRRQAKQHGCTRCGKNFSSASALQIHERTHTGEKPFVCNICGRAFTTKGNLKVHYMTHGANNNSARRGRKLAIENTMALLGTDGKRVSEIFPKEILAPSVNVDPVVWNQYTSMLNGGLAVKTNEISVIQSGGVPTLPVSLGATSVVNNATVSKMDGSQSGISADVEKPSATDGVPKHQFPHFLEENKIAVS
The E-score of `TGGCGTAA` is reported as 0.121.
`GATAGAAA` has an E-score of 0.0902.
With `CTAGCTGC` the E-score was -0.341.
The E-score of `AGCGTGAG` is reported as -0.124.
For `TGCAACAA`, the E-score was 0.202.
The E-score of `GATAACAC` is reported as 0.0984.
`GCCGTGAA` has an E-score of -0.036.
With `CCCGGCGC` the E-score was -0.406.
`CGACCGAG` has an E-score of -0.287.
`AGTTGCAC` gave an E-score of -0.179.
With `ACCCTCAC` the E-score was -0.134.
The E-score of `ACAGCGCG` is reported as -0.267.
`AACGTGAT` gave an E-score of 0.155.
With `CCCACTGC` the E-score was -0.173.

Block 3 — technique: EMSA with sequencing; molecule type: double-stranded DNA, one strand shown; matrix: in vitro; concentration: 10 and 20 nM; relative to: negative control set to 0; direction: higher = stronger binding
Target: Hepatocyte nuclear factor 3-alpha (Foxa1, Mus musculus, UniProt P35582, residues 1-468, full length assumed)
Setting: whole designed probe, mean of two concentrations, ends assumed
All sequences stand within: GTGAGCGGTGCCCATTGATGGGGAAC … TTTCACTGGGATCGTGGGGAC
Residues (chain): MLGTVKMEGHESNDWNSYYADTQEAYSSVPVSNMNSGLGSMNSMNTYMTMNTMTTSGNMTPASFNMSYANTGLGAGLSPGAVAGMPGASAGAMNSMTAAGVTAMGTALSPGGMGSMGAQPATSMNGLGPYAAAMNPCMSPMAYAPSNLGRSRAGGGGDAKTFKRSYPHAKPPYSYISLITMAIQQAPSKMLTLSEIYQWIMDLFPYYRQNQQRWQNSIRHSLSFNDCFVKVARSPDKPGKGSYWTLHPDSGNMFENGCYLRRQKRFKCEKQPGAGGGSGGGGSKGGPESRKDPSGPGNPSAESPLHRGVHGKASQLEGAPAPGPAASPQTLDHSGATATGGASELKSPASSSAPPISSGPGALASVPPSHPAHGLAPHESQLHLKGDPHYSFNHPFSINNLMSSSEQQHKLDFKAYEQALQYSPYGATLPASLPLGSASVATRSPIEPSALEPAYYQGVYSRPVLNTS
`AATGTCTTTAGCAAGGTAATCATTTTCAAAAAATAGAAGAGAACTACATTAAATATTACTGATAAAAGCAAAAGCATCTATAAATTAGCATTCATGTTTACATATTAGTTTCTTACAAAATTAATTCCATAGAAATCTCTGGGAAAATTACAATTTCAAGCTACAGTGGATCTAAGTTTATCTAAATATTTTA`: “normalised bound fraction” 0.262 ratio.
`GTGTGCTAGCCTGTGAGTTTTTCTCTCCAACTAGCCTGGGTACTCAGGAAAGTGAGATCAACTTCTGGGTGGCCTTGGGTGTAGCTGACCTGTGCAAATAGGGGAGACAGTTGACATACAGATGAAAGGGGAGATGGGAAGCCATACAGAGGAAGGAGAAGATCAGGAACCAGAGATAAGATAATTCTGTAAA` — result for “normalised bound fraction”: 0.231 ratio.
For `CCCTCATCCTGGGTGTCGGGGTGGGAGGTGTTCTCATCATGAATGGGAGGCGTACCCAGATCCAGCTCTGCCTTTTTTTAACCAAACCACATTTGTTTACACTCGTGACTCACCAGCTGTTAATCGACATAGCAAGATATGATACATGCCAGGAGAGAAAAAGAAAGTGCTGATGGAAAAATAATCTCATTAG`, “normalised bound fraction” read 0.258 ratio.
Under “normalised bound fraction”, `TTTCTGCTGGAAAATTCTATCTGTCAATAGAGTTCTTAAAAGGATTTGTATTAAGCCTTCCACAGATACTCTGATATTAAAATCAGGTCTGAGTAAACAGGTACATTCTGTGTAGTTAAAATTAAATACTGCTATAAATATGCCCAGTGGGGTAATCCAATTTACTAGTCACTTCAGAGCTGATATGAAGGTC` is recorded as 0.242 ratio.
`ATCTTCCCCCTCTTCCTTGCCCCACCAGCTCACCTACGGGGGTTATTTGCACAAAGGAAAATAAATAAAGCCGGCATTCGTTAACCCTCTTCTGGCGCAAACTGCTGTTTGCTCTGGATGAATCATGGTCCTTTGGCGAGGCGTGGCTCCGGGAGAGCAAAGCACCGTGTCAGGGCCATGATCCGGGGTGGCC` — result for “normalised bound fraction”: 0.379 ratio.

Other studies, line by line
`PhoQ, residues 284 288 289 292 302 303 TTSMTC` has a fold induction of 8.95 (PhoP, residues 12 14 15 18 19 NMSFL (Escherichia coli, UniProt P23836); Sort-seq, refers to: YFP reporter; E. coli; PhoQ-PhoP variant library, with: 10 µM Mg2+; relative to: high Mg2+ state, higher = stronger signaling).

A few entries again (block 1):
`PSVKRRLDLETDH [P2S]` — result for “normalised enrichment score”: 1.48.
`PPVKRILDLETDH [R6I]`: “normalised enrichment score” 0.833.
`CPVKRRLDLETDH [P1C]` — result for “normalised enrichment score”: 1.42.
`PPVKRRLDLATDH [E10A]`: “normalised enrichment score” 2.18.
`PPVKRRLDLRTDH [E10R]`: “normalised enrichment score” 1.37.
